{"data": "Results gathered from unrelated publications", "note": "A part holds a random share of what one study measured."}
{"data": "Set 1", "target": "Ras GTPase-activating protein-binding protein 1, full length (G3BP1, Homo sapiens, UniProt Q13283)", "method": "RNA Bind-n-Seq", "molecule type": "RNA", "matrix": "in vitro", "concentration": "200 nM", "notes": "whole 134-nt RNA, ends assumed", "together with": "150 mM LiCl", "relative to": "input library", "direction": "higher = stronger binding", "all molecules": "7-deaza-guanosine replaces G", "chain of UniProt Q13283 (whole entry, looked up)": "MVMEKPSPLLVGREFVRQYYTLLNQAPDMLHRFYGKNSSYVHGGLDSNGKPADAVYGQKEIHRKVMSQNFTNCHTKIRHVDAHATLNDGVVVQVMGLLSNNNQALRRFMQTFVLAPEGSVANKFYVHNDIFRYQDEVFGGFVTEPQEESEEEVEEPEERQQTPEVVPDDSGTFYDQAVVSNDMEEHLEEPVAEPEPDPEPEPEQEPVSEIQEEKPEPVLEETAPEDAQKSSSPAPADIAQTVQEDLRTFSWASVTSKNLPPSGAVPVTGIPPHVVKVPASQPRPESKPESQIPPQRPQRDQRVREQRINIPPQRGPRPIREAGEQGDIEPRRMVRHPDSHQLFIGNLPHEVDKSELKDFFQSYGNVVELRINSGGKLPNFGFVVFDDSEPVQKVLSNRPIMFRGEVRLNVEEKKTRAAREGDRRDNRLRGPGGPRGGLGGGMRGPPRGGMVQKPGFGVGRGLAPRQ"}
{"Sequence": "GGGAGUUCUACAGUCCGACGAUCCACAGACAACACGCACCCACACAGACACAGAGGGAAGGGGUUGGGAUGGGGACAGGGUGCACAGCAGGGCGGGGUAGGCCCCCAGCCCCUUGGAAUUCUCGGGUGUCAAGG", "log2 enrichment": 0.754}
{"Sequence": "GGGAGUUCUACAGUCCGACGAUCCCUCAAGUCCUGUGCUACACAUCGUAUGUACCGAAUCGGGCGGGGCGGGCGGGAAAGUAUUAUGUUACGCCGUUCGGAUCUGCACUUCCAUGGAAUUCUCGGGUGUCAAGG", "log2 enrichment": -0.632}
{"Sequence": "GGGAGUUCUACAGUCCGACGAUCGUCCUGUGCUACACAUCGUAUGUACCGAAUCAAACCCCCAAAUUUUUAAAUUUUUAAAAAAGUAUUAUGUUACGCCGUUCGGAUCUGCACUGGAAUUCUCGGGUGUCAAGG", "log2 enrichment": 0.688}
{"Sequence": "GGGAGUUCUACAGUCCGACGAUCUUAUUGAACUGACAAGGUCCUCCCUGUGUUGUAGCAAGGACCAGACUGGCUUGAGCUCUCUGAGAUGACCGAGCAGCCAGACUAUGACCUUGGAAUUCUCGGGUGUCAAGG", "log2 enrichment": -0.0129}
{"Sequence": "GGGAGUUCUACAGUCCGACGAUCAAGUCCUGUGCUACACAUCGUAUGUACCGAAUCGGCCCCGGGCCCCGGGGCCCCGGGAAAGUAUUAUGUUACGCCGUUCGGAUCUGCACUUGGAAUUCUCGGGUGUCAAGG", "log2 enrichment": -1.94}
{"Sequence": "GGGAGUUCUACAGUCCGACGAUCUCAAGUCCUGUGCUACACAUCGUAUGUACCGAAUCGGGAAAGGGAAAGGAAAGGGAAAGUAUUAUGUUACGCCGUUCGGAUCUGCACUUCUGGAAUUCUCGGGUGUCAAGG", "log2 enrichment": -0.376}
{"Sequence": "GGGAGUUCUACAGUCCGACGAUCACCAUGCAGGUGGGCAUCUUUGGGAAGUGGGGCAAGGGGGGGAUAAAAAGGGGGGUAACACUUUGGGAACAGGUGGUCCCAGGUCGUUUCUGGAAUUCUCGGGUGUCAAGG", "log2 enrichment": 0.375}
{"Sequence": "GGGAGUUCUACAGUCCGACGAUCGGUGGAAUCCAUAGAGCUCCCCAUGGACAACAAGACCAAUAAGAGGCGUGGGUUCUGCUUUAUUACCUUUAAGGAAGAAGAACCAGUGAAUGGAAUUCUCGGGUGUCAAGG", "log2 enrichment": 0.21}
{"data": "Set 2", "target": "Histone acetyltransferase KAT6A, winged helix 2, GST fusion (KAT6A, Homo sapiens, UniProt Q92794, residues 85-181)", "method": "protein binding microarray", "molecule type": "double-stranded DNA, one strand shown", "matrix": "in vitro", "concentration": "not given", "notes": "8-mer, flanks averaged, mean of 2 arrays, mostly near background", "relative to": "not given", "direction": "higher = stronger binding", "Residues (chain)": "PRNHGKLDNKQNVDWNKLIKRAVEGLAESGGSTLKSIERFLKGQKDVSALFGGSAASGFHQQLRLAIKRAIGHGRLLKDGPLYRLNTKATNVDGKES"}
{"Sequence": "AGTATGGA", "E-score": 0.117}
{"Sequence": "CAAAAATC", "E-score": 0.045}
{"Sequence": "GACTGATC", "E-score": -0.056}
{"Sequence": "AGGATGAG", "E-score": -0.219}
{"Sequence": "ACCCTCGG", "E-score": 0.0583}
{"Sequence": "GCGCGAAA", "E-score": 0.227}
{"Sequence": "GAGTAATA", "E-score": 0.012}
{"Sequence": "ATGCCCTC", "E-score": 0.0741}
{"Sequence": "AGGGGGTG", "E-score": -0.00067}
{"Sequence": "AGGTTAAC", "E-score": -0.0614}
{"Sequence": "AAAGGTCT", "E-score": -0.2}
{"Sequence": "GTGTCTTA", "E-score": -0.105}
{"Sequence": "GAGCCTCC", "E-score": 0.0227}
{"Sequence": "AGTTGTGG", "E-score": -0.0373}
{"Sequence": "TCCACACA", "E-score": 0.0777}
{"Sequence": "CCCGGTCG", "E-score": 0.0778}
{"data": "Set 3", "target": "Interferon regulatory factor 7, full length, phosphomimetic (IRF7, Homo sapiens, UniProt Q92985, residues 1-503, S471D/S472D/S475D/S476D/S477D/S483D/S484D/S487D)", "method": "protein-binding microarray", "molecule type": "double-stranded DNA, one strand shown", "matrix": "in vitro", "concentration": "2200 nM top", "notes": "60-bp whole probe", "together with": "salmon DNA 0.4 mg/ml", "relative to": "random background probes", "direction": "higher = stronger binding", "constant ends, left off below": "GCCTAGCAC … GTCTTGATTCGCTTGACGCTGCTG", "Residues (chain)": "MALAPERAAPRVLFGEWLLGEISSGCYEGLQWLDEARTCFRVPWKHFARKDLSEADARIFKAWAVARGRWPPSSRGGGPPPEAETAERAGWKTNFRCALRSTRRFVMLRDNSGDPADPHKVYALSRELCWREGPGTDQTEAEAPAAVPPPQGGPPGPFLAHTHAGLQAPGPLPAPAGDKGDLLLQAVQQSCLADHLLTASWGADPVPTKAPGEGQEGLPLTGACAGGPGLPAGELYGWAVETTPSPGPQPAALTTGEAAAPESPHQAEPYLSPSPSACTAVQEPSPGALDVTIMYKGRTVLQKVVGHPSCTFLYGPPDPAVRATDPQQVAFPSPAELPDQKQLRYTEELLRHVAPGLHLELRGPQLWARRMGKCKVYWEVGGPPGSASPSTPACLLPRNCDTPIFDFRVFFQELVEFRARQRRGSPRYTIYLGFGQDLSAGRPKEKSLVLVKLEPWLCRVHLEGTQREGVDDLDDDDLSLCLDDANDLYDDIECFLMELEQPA"}
{"Sequence": "TTAGATTTCAGACTGGATTTGTGCTAG", "fitted relative affinity": "-0.000385 z-score"}
{"Sequence": "TTAGGTATCGGGTATCGGATAGTGCTA", "fitted relative affinity": "0.36 z-score"}
{"Sequence": "TTAGGGCTCGGTCTCGGTTAGTGCTAG", "fitted relative affinity": "-0.542 z-score"}
{"Sequence": "GACGAACTGTGACTGGAGACGTGCTAG", "fitted relative affinity": "0.0492 z-score"}
{"Sequence": "TCAACTAGGAGTTTTCAGACTGTGCTA", "fitted relative affinity": "-0.129 z-score"}
{"Sequence": "GACGGTTTCGGGGATCGGGACGTGCTA", "fitted relative affinity": "2.36 z-score"}
{"Sequence": "TCATTTCTATATTTGCTACTGTGCTAG", "fitted relative affinity": "2.24 z-score"}
{"Sequence": "TCAAGTTTTCTTTTCCAACTGTGCTAG", "fitted relative affinity": "3.59 z-score"}
{"Sequence": "TGGGCATTTTTTTTATCAATGTGCTAG", "fitted relative affinity": "-0.368 z-score"}
{"Sequence": "GACGGTTTCGGTTCCTGGACGTGCTAG", "fitted relative affinity": "12.2 z-score"}
{"Sequence": "TTAGGACTGGGGTTTCTGTTAGTGCTA", "fitted relative affinity": "0.62 z-score"}
{"Sequence": "TTAGGTCTCCTTCTCCATTAGTGCTAG", "fitted relative affinity": "1.02 z-score"}
{"Sequence": "TTAGATTTCACACTGGATTAGTGCTAG", "fitted relative affinity": "0.466 z-score"}
{"Sequence": "GACGGCTTCGGTATCGGGACGTGCTAG", "fitted relative affinity": "-0.14 z-score"}
{"Sequence": "TTGGATCTCAGTTTCGATTAGTGCTAG", "fitted relative affinity": "5.91 z-score"}
{"Sequence": "GCACATGAGCCAAGCCTGCCGTGCTAG", "fitted relative affinity": "0.175 z-score"}
{"Sequence": "GACGAACTGGGTCTCGGGACGTGCTAG", "fitted relative affinity": "-0.114 z-score"}
{"Sequence": "TTAGGTCTCCGACTGCTTTAGTGCTAG", "fitted relative affinity": "-0.0428 z-score"}
{"Sequence": "TAGAAACTCGTGTTTTTCTCCGTGCTA", "fitted relative affinity": "0.755 z-score"}
{"data": "Set 4", "target": "RING finger protein unkempt homolog, zinc fingers 1-6, GST-SBP tag (UNK, Homo sapiens, UniProt Q9C0B0, residues 30-357)", "method": "RNA Bind-n-Seq", "molecule type": "RNA", "matrix": "in vitro", "concentration": "not given", "notes": "RNA with constant flanks, human-mouse chimeric sites, ends assumed", "relative to": "input RNA pool", "direction": "higher = stronger binding", "chain of UniProt Q9C0B0 (30-357, looked up)": "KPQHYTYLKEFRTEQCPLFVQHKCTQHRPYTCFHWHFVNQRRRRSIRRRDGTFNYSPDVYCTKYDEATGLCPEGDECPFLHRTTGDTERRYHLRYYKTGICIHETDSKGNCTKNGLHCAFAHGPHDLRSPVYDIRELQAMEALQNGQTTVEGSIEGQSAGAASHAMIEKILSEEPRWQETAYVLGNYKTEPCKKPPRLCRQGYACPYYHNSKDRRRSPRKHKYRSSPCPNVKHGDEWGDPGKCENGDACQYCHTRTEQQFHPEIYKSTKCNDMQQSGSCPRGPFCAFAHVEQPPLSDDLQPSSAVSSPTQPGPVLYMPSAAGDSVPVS"}
{"Sequence": "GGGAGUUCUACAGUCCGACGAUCCCAAUUGUGGAGCAGUACUUGAAGACAAAAAAGAACUCUAAUAAUUUAAUCAUCAAGUACAUUAGCUGCCGCCUGCUGACACUCAUCAUUAUACUGUUAGCGUGUAUCUACCUGGGCUAUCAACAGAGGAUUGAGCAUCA", "bound/input enrichment [ratio]": 0.462}
{"Sequence": "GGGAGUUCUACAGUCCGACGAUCAGAGAUAAAGCAUCUAGGAACAUGCGAGGCUCCCGGAUGAAUGGGUUGCCUAGCCCCACUCACAGCGCCCACUGUAGCUUCUACAGAACCAGAACCUUGCAGGCACUGAGUAAUGAGAAGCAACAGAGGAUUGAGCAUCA", "bound/input enrichment [ratio]": 0.114}
{"Sequence": "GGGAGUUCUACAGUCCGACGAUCUUGAAAACUGAUUCAAGCAAGUUUGAAUAUCACAAUGUUAGCUUUCUAAUUCCAUAAAAGUACUUGGUUUUUACAGUUUAUAAUCUGACAUCACCCCAGCGCCAUUUGUAAAGAGCAACUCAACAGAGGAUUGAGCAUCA", "bound/input enrichment [ratio]": 0.686}
{"Sequence": "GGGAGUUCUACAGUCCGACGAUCUCUGGUCACACUCGUGUGUAUGGUGUUUGCUUUGUGGAUACUUCACUGGGCAAGUUUUUCAUCGGCCAGUUUUCGGAUGACCGCCACUGUUCCAGAUUUAGGACGCUAGUGGCACACUAUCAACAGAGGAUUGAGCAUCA", "bound/input enrichment [ratio]": 0.168}
{"Sequence": "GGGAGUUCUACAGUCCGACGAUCUGACAAGGGCACUGCAGAGCCAUGCCUUUCCUUGACAUACAGAAAAAGCUGGGCAUCAGCCUGGACCGGCACUUUAUAAUCCAGAGUGGUGAACAGCCCUAUAAGAACGCCGCUCGGUGCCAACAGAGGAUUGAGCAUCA", "bound/input enrichment [ratio]": 0.105}
{"Sequence": "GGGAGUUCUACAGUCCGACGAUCUCAGGAACCCAGACAAACAUGAAUGUAAAUGAAGUCAUUAGCAACAGAGCAAUUGAAAUGUUAGGAGGUGAACUUGGCAGCAAGAUACCUGUGCACCCCAACGAUCAUGUUAACAAAAGCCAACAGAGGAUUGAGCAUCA", "bound/input enrichment [ratio]": 0.281}
{"Sequence": "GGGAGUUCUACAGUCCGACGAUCUACUCAACUUUCUUGCCACAUUUUGAAUUCCAAGAUGUUAUUCCUCCAGAUGACUUUCUAACGAGUGAUGAAGAGCAAGAUUUGGUUUUAUUUGGAACUAUGAGAGGACAAGUUGUUGGACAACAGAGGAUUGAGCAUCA", "bound/input enrichment [ratio]": 0.167}
{"Sequence": "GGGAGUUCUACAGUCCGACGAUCCGCUGGCCCAAGCUGAUGGACUCUGAUCUUGAUCUCUUCUCAGGCACGUGUGCCUUCUCUUAGUCCCUGUUUUCGGGAUGUUAUGAAUCUCAGUACUGUUUGACAGAAGCACCAGCUUUGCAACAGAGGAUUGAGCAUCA", "bound/input enrichment [ratio]": 0.177}
{"note": "Excerpt of the above (set 2):"}
{"Sequence": "GAGCCTCC", "E-score": 0.0227}
{"Sequence": "GACTGATC", "E-score": -0.056}
{"Sequence": "AGGATGAG", "E-score": -0.219}
{"Sequence": "AGTTGTGG", "E-score": -0.0373}
{"Sequence": "ACCCTCGG", "E-score": 0.0583}
{"Sequence": "CCCGGTCG", "E-score": 0.0778}
